Assay results collected from several papers.
Protocols differ between the studies behind these lines. Several values in a cell are separate wells, animals, samples, runs or records. ± marks the error that the study gave. ≈ marks a conversion by molar mass, not a printed value.

SMILES = CCOC(=O)CSC1=N/C(=C\c2ccc(C(C)C)cc2)C(=O)N1c1ccccc1; organism = Fusarium solani; conditions = concentration not given; measurement = inhibition zone diameter; value = 14 ± 0.2 mm
SMILES = CCCCCCCCCC(=O)N[C@@H](Cc1c[nH]c2ccccc12)C(=O)N[C@H](CC(N)=O)C(=O)N[C@@H](CC(=O)O)C(=O)N[C@@H]1C(=O)NCC(=O)N[C@@H](CCCN)C(=O)N[C@@H](CC(=O)O)C(=O)N[C@H](C)C(=O)N[C@@H](CC(=O)O)C(=O)NCC(=O)N[C@H](CO)C(=O)N[C@@H]([C@H](C)CC(=O)O)C(=O)N[C@@H](CC(=O)c2ccccc2N)C(=O)O[C@@H]1C; organism = Staphylococcus aureus; assay = broth microdilution; test system = MRSA USA300, Mueller-Hinton broth, Mg2+ 10 mg/L; conditions = 16 h, 37 °C, added: Ca2+ 10 mM; measurement = MIC; value = 0.125 µg/mL
SMILES = COCC(=O)N1CCCC(C(=O)NCc2nc(-c3ccccc3)cs2)C1 (racemic); organism = Plasmodium falciparum; assay = SYBR Green; test system = 3D7; conditions = 72 h; measurement = EC50; value = 0.19 ± 0.041 µM
SMILES = CC(C)(C)CC(C)(C)c1ccc(OCCO)cc1; organism = Phelipanche ramosa; assay = seed germination, antagonist; conditions = added: 2-PEITC 100 nM; measurement = IC50; value = 15 µM
SMILES = COc1ncc(-c2cn([C@@H]3O[C@](F)(CO)[C@@H](O)[C@H]3O)cn2)c(OC)n1; organism = Dengue virus; assay = viral replication; test system = Huh-7, DENV-2; conditions = 48 h; measurement = EC50; value = > 100 µM
SMILES = CC(C)c1ccc(/C=C2\N=C(SCC(=O)O)N(c3ccccc3)C2=O)cc1; organism = Fusarium solani; assay = serial dilution; measurement = MIC; value = 12 ± 0.6 µg/mL
SMILES = CC(C)C(=O)OC[C@@]1(F)O[C@@H](n2cnc(-c3cnc(=O)[nH]c3)c2)[C@H](OC(=O)C(C)C)[C@@H]1OC(=O)C(C)C; organism = Dengue virus; assay = viral replication; test system = Huh-7, DENV-4; conditions = 48 h; measurement = EC50; value = > 100 µM
SMILES = CC(=O)NC[C@H]1CN(c2ccc(N3CCOCC3)c(F)c2)C(=O)O1; organism = Lactobacillus; test system = ATCC 53103; measurement = MIC; value = 5.93 µM
SMILES = CNC(C)C1CCC(N)C(OC2C(N)CC(N)C(OC3OCC(C)(O)C(NC)C3O)C2O)O1 (stereo not drawn); organism = Pseudomonas aeruginosa; test system = clinical isolate RKI-No_497/15; measurement = MIC; value = 4 µg/mL
SMILES = CC(=O)Oc1ccc(-c2c(C(N)=O)c(N)n(N)c(=O)c2C#N)cc1; organism = Escherichia coli; assay = time-kill; conditions = 1 x MIC, 30 min; measurement = viable count; value = 3.64 log CFU/mL
SMILES = Cc1ccc(CCC(=O)Nc2nnc(S(N)(=O)=O)s2)cc1; organism = Enterococcus raffinosus; test system = ATCC 49464; measurement = MIC; value = 3.06 µM
SMILES = Cc1c(CN(C)C(=O)/C=C/c2cnc3c(c2)CC(NC(=O)OC(C)(C)C)C(=O)N3)oc2ccccc12 (stereo not drawn); organism = Klebsiella pneumoniae; assay = broth microdilution; test system = AR-0141; measurement = MIC; value = > 32 µg/mL
SMILES = C[C@@H](O)[C@H]1C(=O)N2C(C(=O)O)=C(SCCN=CN)C[C@H]12; organism = Escherichia coli; test system = 2904, female ICR mice, peritonitis, blood; conditions = dose not given, 168 h; measurement = bacterial load; value = 1.52 log CFU and 2.3 log CFU and 2 log CFU and 0 log CFU and 1.82 log CFU
SMILES = Nc1ncncc1-c1cn([C@@H]2O[C@](F)(CO)[C@@H](O)[C@H]2O)cn1; organism = Dengue virus; assay = viral replication; test system = Huh-7, DENV-4; conditions = 48 h; measurement = EC50; value = > 100 µM
SMILES = CC(C)C[C@H](NC(=O)[C@H](Cc1cccc2ccccc12)NC(=O)OCc1ccccc1)C(=O)N[C@H](CCl)C[C@@H]1CCCNC1=O; organism = Norwalk virus; assay = replicon RNA level, RT-qPCR; test system = HG23 cells, GI.1 replicon; conditions = 96 h; measurement = EC50; value = > 10 µM
SMILES = Nc1nc(-c2ccccc2)nc2[nH]nc(Nc3ccc(C(F)(F)F)cc3)c12; organism = coxsackievirus B3; test system = 31-1-93, NMRI mice, CVB3 chronic myocarditis; conditions = oral, 100 mg/kg twice daily, day 28, dosed days 1 to 7, score scale 0 to 7; scale = direction not given; measurement = clinical score; value = 0.11
SMILES = CC(C)c1ccc(/C=C2\N=C(SCc3ccccc3)N(c3ccccc3)C2=O)cc1; organism = Fusarium solani; conditions = concentration not given; measurement = inhibition zone diameter; value = 15 ± 0.56 mm
SMILES = COC(=O)[C@H](Cc1ccc(O)cc1)NCc1cc2ccccc2nc1SC; organism = Pseudomonas aeruginosa; conditions = 128 µg/mL, added: pentamidine 100 µM; scale = relative to: control; measurement = growth; value = 52%
SMILES = C[C@@H](O)[C@H]1C(=O)N2C(C(=O)O)=C(S[C@@H]3CN[C@H](C(=O)N(C)C)C3)[C@H](C)[C@H]12; organism = Acinetobacter pittii; assay = broth microdilution; test system = clinical isolate RKI 588/16; measurement = MIC; value = ≤ 0.5 µg/mL
SMILES = COc1ncc(-c2cn([C@@H]3O[C@](F)(COC(=O)C(C)C)[C@@H](OC(=O)C(C)C)[C@H]3OC(=O)C(C)C)cn2)cn1; organism = Dengue virus; assay = viral replication; test system = Huh-7, DENV-2; conditions = 48 h; measurement = EC50; value = > 100 µM
SMILES = COC(=O)[C@H](Cc1c[nH]c2ccccc12)NCc1cc2ccccc2nc1OC; organism = Pseudomonas aeruginosa; conditions = 2 µg/mL, added: pentamidine 100 µM; scale = relative to: control; measurement = growth; value = 56.4%
SMILES = Cc1cc(OC(C)C)ccc1C(=O)C(C)(C)NC(=O)c1sccc1C; organism = Botrytis cinerea; assay = mycelial growth; test system = B05.10; conditions = 0.3 µg/mL; measurement = inhibition; value = 100%
SMILES = C[C@H](CCCC(C)(C)O)[C@H]1CC[C@H]2[C@@H]3CC=C4C[C@@H](O)CC[C@]4(C)[C@H]3CC[C@]12C; organism = human rotavirus; assay = viral replication; test system = Caco-2, DS-1; measurement = EC90; value = 2.42 µM
SMILES = N=C(N)c1ccc(OCc2cc(Br)cc(COc3ccc(C(=N)N)cc3)c2)cc1; organism = Klebsiella pneumoniae; assay = checkerboard; test system = ATCC 13883; conditions = unit not given, added: rifampicin; scale = lower = stronger synergy; measurement = FICI; value = ≤ 0.023
SMILES = COc1ccc(N/N=C/c2ccc(-c3cccc(/C=N/Nc4ccc(OC)cc4)c3)cc2)cc1; organism = Aspergillus flavus; test system = ATCC MYA-3631; scale = relative to: CC50 over MIC; measurement = selectivity ratio; value = < 0.6
SMILES = CC(=O)NC[C@H]1CN(c2ccc(N3CCOCC3)c(F)c2)C(=O)O1; organism = Streptococcus pneumoniae; test system = PRSP; conditions = 10 isolates; measurement = MIC50; value = 0.5 µg/mL (≈ 1.48 µM)
SMILES = Cc1cc(Nc2ccc(S(F)(F)(F)(F)F)cc2)n2nc(C(C)(F)F)nc2n1; organism = Plasmodium falciparum; assay = microscopy; test system = P. falciparum malaria patients; conditions = oral, 250 mg; measurement = PC50 parasite clearance time median; value = 24 h
SMILES = N#Cc1c(-c2ccc(OCc3ccccc3)cc2)c(C(N)=O)c(N)n(N)c1=O; organism = Escherichia coli; assay = time-kill; conditions = 1 x MIC, 30 min; measurement = viable count; value = 2.69 log CFU/mL
SMILES = CO[C@H]1/C=C/O[C@@]2(C)Oc3c(C)c(O)c4c(c3C2=O)C2=NC3(CCN(CC(C)C)CC3)NC2=C(NC(=O)/C(C)=C\C=C\[C@H](C)[C@H](O)[C@@H](C)[C@@H](O)[C@@H](C)[C@H](OC(C)=O)[C@@H]1C)C4=O; organism = Mycobacteroides abscessus; assay = bacterial growth; test system = subsp. abscessus Bamboo; measurement = IC90; value = 5.87 µM
SMILES = COc1nc(N)ncc1-c1cn([C@@H]2O[C@](F)(CO)[C@@H](O)[C@H]2O)cn1; organism = Dengue virus; assay = viral replication; test system = Huh-7, DENV-2; conditions = 48 h; measurement = EC50; value = > 50 µM
SMILES = Cc1cc(=O)oc2c(F)c(O)c(F)cc12; organism = Phelipanche ramosa; assay = stimulant; conditions = 1 µM; scale = relative to: (±)-GR24; measurement = maximum germination stimulation; value = 3%
SMILES = OC[C@H]1O[C@@H]2O[C@H]3[C@H](O)[C@@H](O)[C@@H](O[C@H]4[C@H](O)[C@@H](O)[C@@H](O[C@H]5[C@H](O)[C@@H](O)[C@@H](O[C@H]6[C@H](O)[C@@H](O)[C@@H](O[C@H]7[C@H](O)[C@@H](O)[C@@H](O[C@H]8[C@H](O)[C@@H](O)[C@@H](O[C@H]1[C@H](O)[C@H]2O)O[C@@H]8CO)O[C@@H]7CO)O[C@@H]6CO)O[C@@H]5CO)O[C@@H]4CO)O[C@@H]3CO; organism = Escherichia coli; assay = LuxR reporter, antagonist; test system = DH5α sensor strain; conditions = 40 µM, added: OHHL 200 nM; measurement = inhibition; value = -5%
SMILES = CC(C)C[C@H](NC(=O)[C@H](Cc1cccc2ccccc12)NC(=O)OCc1ccccc1)C(=O)NC(C[C@@H]1CCNC1=O)C1CO1 (stereo partly drawn); organism = Norwalk virus; assay = replicon RNA level, RT-qPCR; test system = HG23 cells, GI.1 replicon; conditions = 96 h; measurement = EC50; value = > 10 µM
SMILES = CC(C)C(=O)Nc1ncncc1-c1cn([C@@H]2O[C@](F)(COC(=O)C(C)C)[C@@H](OC(=O)C(C)C)[C@H]2OC(=O)C(C)C)cn1; organism = Dengue virus; assay = viral replication; test system = Huh-7, DENV-2; conditions = 48 h; measurement = EC50; value = 33 µM
SMILES = C[C@@H](CO)CCC[C@@H](C)[C@H]1CC[C@H]2[C@@H]3CC=C4C[C@@H](O)CC[C@]4(C)[C@H]3CC[C@]12C; organism = human rotavirus; assay = viral replication; test system = Caco-2, Wa; measurement = EC90; value = 2.5 µM
SMILES = COc1ncncc1-c1cn([C@@H]2O[C@](F)(CO)[C@@H](O)[C@H]2O)cn1; organism = Dengue virus; assay = viral replication; test system = Huh-7, DENV-2; conditions = 48 h; measurement = EC50; value = > 100 µM
SMILES = CC(C)n1ncc2c(C(=O)NCC3(C)CNC3)cc(C3CC3)nc21; organism = Enterovirus D68; assay = viral replication; test system = RD, US/MO/14-18947; conditions = 30 nM; measurement = plaque reduction; value = 0%
SMILES = CC1(C)S[C@@H]2[C@H](NC(=O)[C@H](N)c3ccccc3)C(=O)N2[C@H]1C(=O)O; organism = Pseudomonas aeruginosa; test system = clinical isolate RKI-No_502/15; measurement = MIC; value = > 16 µg/mL
SMILES = CC(C)C(=O)OC[C@@]1(F)O[C@@H](n2cnc(-c3c[nH]c(=O)nc3N)c2)[C@H](OC(=O)C(C)C)[C@@H]1OC(=O)C(C)C; organism = Dengue virus; assay = viral replication; test system = Huh-7, DENV-2; conditions = 48 h; measurement = EC50; value = > 100 µM

Repeated from above:
SMILES = COc1nc(N)ncc1-c1cn([C@@H]2O[C@](F)(CO)[C@@H](O)[C@H]2O)cn1; organism = Dengue virus; assay = viral replication; test system = Huh-7, DENV-2; conditions = 48 h; measurement = EC50; value = > 50 µM
SMILES = CC(=O)NC[C@H]1CN(c2ccc(N3CCOCC3)c(F)c2)C(=O)O1; organism = Lactobacillus; test system = ATCC 53103; measurement = MIC; value = 5.93 µM
SMILES = CC(C)C[C@H](NC(=O)[C@H](Cc1cccc2ccccc12)NC(=O)OCc1ccccc1)C(=O)NC(C[C@@H]1CCNC1=O)C1CO1 (stereo partly drawn); organism = Norwalk virus; assay = replicon RNA level, RT-qPCR; test system = HG23 cells, GI.1 replicon; conditions = 96 h; measurement = EC50; value = > 10 µM
SMILES = CC(=O)Oc1ccc(-c2c(C(N)=O)c(N)n(N)c(=O)c2C#N)cc1; organism = Escherichia coli; assay = time-kill; conditions = 1 x MIC, 30 min; measurement = viable count; value = 3.64 log CFU/mL
SMILES = C[C@@H](O)[C@H]1C(=O)N2C(C(=O)O)=C(SCCN=CN)C[C@H]12; organism = Escherichia coli; test system = 2904, female ICR mice, peritonitis, blood; conditions = dose not given, 168 h; measurement = bacterial load; value = 1.52 log CFU and 2.3 log CFU and 2 log CFU and 0 log CFU and 1.82 log CFU
